Experimental data from different studies.
Values joined by “and” are separate records of one study, mostly repeats; a detail may differ. ± gives the spread as reported.
Ugcg: Ceramide glucosyltransferase (Ugcg, Mus musculus, UniProt O88693)
Chain of UniProt O88693 (whole entry, looked up): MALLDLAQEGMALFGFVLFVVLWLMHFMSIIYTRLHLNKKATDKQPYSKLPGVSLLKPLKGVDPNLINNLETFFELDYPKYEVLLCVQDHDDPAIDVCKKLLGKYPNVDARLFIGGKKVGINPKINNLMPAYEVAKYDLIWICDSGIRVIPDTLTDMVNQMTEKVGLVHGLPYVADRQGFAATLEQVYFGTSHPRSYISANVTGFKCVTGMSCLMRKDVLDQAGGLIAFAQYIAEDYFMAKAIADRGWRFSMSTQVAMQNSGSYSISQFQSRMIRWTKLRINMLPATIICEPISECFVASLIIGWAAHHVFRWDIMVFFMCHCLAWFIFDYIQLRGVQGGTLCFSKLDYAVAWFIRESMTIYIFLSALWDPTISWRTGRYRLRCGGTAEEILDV
Chain of UniProt P10635 (whole entry, looked up): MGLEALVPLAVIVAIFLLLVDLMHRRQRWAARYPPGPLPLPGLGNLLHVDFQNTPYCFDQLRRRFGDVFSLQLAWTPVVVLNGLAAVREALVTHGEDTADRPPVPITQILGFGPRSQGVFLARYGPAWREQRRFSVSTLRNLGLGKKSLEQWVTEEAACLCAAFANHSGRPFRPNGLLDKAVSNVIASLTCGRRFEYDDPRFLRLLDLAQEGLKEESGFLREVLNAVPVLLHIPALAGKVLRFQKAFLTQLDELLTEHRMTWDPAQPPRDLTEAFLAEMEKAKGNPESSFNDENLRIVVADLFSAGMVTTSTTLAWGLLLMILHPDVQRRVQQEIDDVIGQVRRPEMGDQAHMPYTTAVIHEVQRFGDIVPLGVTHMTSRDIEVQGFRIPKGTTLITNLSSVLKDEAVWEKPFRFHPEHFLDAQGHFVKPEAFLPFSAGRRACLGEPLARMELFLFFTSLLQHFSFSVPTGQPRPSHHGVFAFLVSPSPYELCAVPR

`CNC(=O)C1CCCN(C(=O)C2CC3CCC2N3C(=O)[C@@H]2C[C@@H](O)CN2C(=O)NCc2cccc(Cl)c2F)C1` (mixture of isomers) has a dextrorphan formation of 149 ng/mL (Cytochrome P450 2D6 (CYP2D6, Homo sapiens, UniProt P10635); enzyme activity, inhibitor, time-dependent inhibition; 50 µM, preincubated without NADPH).
For `F[C@@H]1[C@H](c2ccc(-c3cncnc3)cc2)[C@H](F)[C@H](F)C[C@@H]1F`, the hepatic clearance was 6.8 mL/min/kg (liver microsome stability; cynomolgus liver microsomes; 1 µM).
Under “revertants per plate”, `Nc1nc2cc(C(=O)c3ccc(F)cc3)ccc2[nH]1` is recorded as 20.3 revertants/plate (Salmonella typhimurium; Ames preincubation test; TA1535; 312.5 µg/plate, 3 days, without S9).
`CCN(CC)CC#CCNc1ccnc2cc(Cl)ccc12` gave a revertants of 74 revertants/well (Salmonella typhimurium; mini-Ames test; TA102; 62.5 µg/well, without S9).
`OC[C@@H]1[C@@H](O)[C@H](O)[C@@H](O)CN1CCCCCCC12CC3CC(CC(C3)C1)C2` gave an IC50 of 40 µM (Ugcg; enzyme activity, inhibitor, fluorescence).
With `N#C[C@@H]1CC(F)(F)CN1C(=O)CNC(=O)c1ccnc2c(NC(=O)CCOCCOCCOCCOCCOCCOCCNC(=O)[C@H](CCCCNC(=O)CN3CCN(CC(=O)[O-])CCN(CC(=O)[O-])CCN(CC(=O)[O-])CC3)NC(=O)CCCc3ccc(I)cc3)cccc12.[177Lu+3]` the tracer uptake was 4.59 %ID/g (U-87 MG tumour model; host not given, pancreas; 1 h, tumour-bearing).
For `F[C@@H]1[C@H](c2ccc(-c3ccc(N4CCCC4)nc3)cc2)[C@H](F)[C@H](F)C[C@@H]1F`, the hepatic clearance was 25 mL/min/kg (liver microsome stability; dog liver microsomes; 1 µM).
`CC(=O)N[C@H](C(=O)N[C@H](C(=O)N[C@@H](CCCNC(=N)N)C(=O)N[C@@H](CC(N)=O)C(=O)N[C@@H](CC(=O)O)C(=O)N[C@H](C(=O)N1CCC[C@@H]1C(=O)N1CCC[C@H]1C(=O)N[C@@H](CC(=O)O)C(=O)N[C@@H](CO)C(=O)N[C@@H](CC(C)C)C(=O)N[C@@H](CC(C)C)C(=O)N[C@H](C(=O)N[C@@H](Cc1ccccc1)C(N)=O)C(C)C)C(C)C)[C@@H](C)O)C(C)C`: peptide amount “not detected” (HEK-293T; subcellular fractionation LC-MS; nuclear fraction; 20 µM, 2 h).
The activity concentration of `CC(C)C[C@H](NC(=O)[C@H](Cc1ccc(O)cc1)NC(=O)[C@@H](CCCNC(=N)N)NC(=O)[C@@H](CO)NC(=O)[C@H](Cc1ccccc1)NC(=O)[C@H](CC1CCCCC1)NC(=O)[C@H](CC(=O)O)NC(=O)CN1CCN(CC(=O)O)CCN(CC(=O)O)CCN(CC(=O)O)CC1)C(=O)N[C@@H](Cc1c[nH]c2ccccc12)C(=O)N[C@@H](CO)C(=O)O` [copper-64 labelled] is reported as 2730 Bq/mL and 1780 Bq/mL and 2460 Bq/mL and 369 Bq/mL and 3570 Bq/mL and 2430 Bq/mL (human, upper large intestine; concentration not given, 24 h).
`Cc1cc(=O)c2c(O)c3c(O[C@@H]4O[C@H](CO)[C@@H](O)[C@H](O)[C@H]4O)cc(O)cc3cc2o1` has a cell viability of 83.8 ± 20.6% (HepaRG co-cultured with HK-2; MTT; 133.33 µM, 24 h; relative to: untreated control).
With `C=C(NC(=O)c1csc(-c2nc3c(cc2O)-c2nc(cs2)C(=O)NC(C(C)O)C(=O)NC(=C(C)OC)c2nc(cs2)C(=O)NC2c4nc(cs4)C(=O)NC(COC(=O)c4c5c6c(cccc6n4O)COC(=O)C(OC4CC(C)(O)C(N(C)C)C(C)O4)C2OC5)c2nc-3cs2)n1)C(N)=O` (stereo not shown) the Cmax was 12300 ng/mL (cynomolgus monkey, male, plasma; intravenous infusion, 3 mg/kg multiple doses, day 7).
`O=C1NC2(CC2)COc2ncc(F)cc2[C@H]2COCCN2c2ccn3ncc1c3n2` gave a revertant colonies of 82 ± 10 revertants/plate (Salmonella typhimurium; Ames test; TA97a; 1500 µg/plate, 48 h, together with: without S9).
`CNC(=O)c1ccc(C2CCCCC2)cc1` has a hepatic clearance of 41 mL/min/kg (liver microsome stability; cynomolgus liver microsomes; 1 µM).
With `N#C[C@@H]1CC(F)(F)CN1C(=O)CNC(=O)c1ccnc2c(NC(=O)[C@@H](N)CCCCNC(=O)CCOCCOCCOCCOCCOCCOCCNC(=O)CN3CCN(CC(=O)[O-])CCN(CC(=O)[O-])CCN(CC(=O)[O-])CC3)cccc12.[177Lu+3]` the tracer uptake was 0.05 %ID/g (U-87 MG tumour model; host not given, stomach; 24 h, tumour-bearing).
`c1cc(C2CCCCC2)ccc1-c1ccc(N2CCCC2)nc1` has a hepatic clearance of 20 mL/min/kg (hepatocyte stability; cryopreserved rat hepatocytes; 1 µM).
With `CC(C)=CCC/C(C)=C/CC/C(C)=C/COCCCCCN1C[C@H](O)[C@@H](O)[C@H](O)[C@H]1CO` the IC50 was 0.5 µM (Ugcg; enzyme activity, inhibitor, fluorescence).

A few entries again:
`CCN(CC)CC#CCNc1ccnc2cc(Cl)ccc12` gave a revertants of 74 revertants/well (Salmonella typhimurium; mini-Ames test; TA102; 62.5 µg/well, without S9).
`CNC(=O)C1CCCN(C(=O)C2CC3CCC2N3C(=O)[C@@H]2C[C@@H](O)CN2C(=O)NCc2cccc(Cl)c2F)C1` (mixture of isomers) has a dextrorphan formation of 149 ng/mL (Cytochrome P450 2D6 (CYP2D6, Homo sapiens, UniProt P10635); enzyme activity, inhibitor, time-dependent inhibition; 50 µM, preincubated without NADPH).
`CC(=O)N[C@H](C(=O)N[C@H](C(=O)N[C@@H](CCCNC(=N)N)C(=O)N[C@@H](CC(N)=O)C(=O)N[C@@H](CC(=O)O)C(=O)N[C@H](C(=O)N1CCC[C@@H]1C(=O)N1CCC[C@H]1C(=O)N[C@@H](CC(=O)O)C(=O)N[C@@H](CO)C(=O)N[C@@H](CC(C)C)C(=O)N[C@@H](CC(C)C)C(=O)N[C@H](C(=O)N[C@@H](Cc1ccccc1)C(N)=O)C(C)C)C(C)C)[C@@H](C)O)C(C)C`: peptide amount “not detected” (HEK-293T; subcellular fractionation LC-MS; nuclear fraction; 20 µM, 2 h).
